Published values gathered from unrelated publications.
Every numbered part comes from another study and shows a few of its results, in no order.
UniProt Q99720, sequence (whole entry, looked up): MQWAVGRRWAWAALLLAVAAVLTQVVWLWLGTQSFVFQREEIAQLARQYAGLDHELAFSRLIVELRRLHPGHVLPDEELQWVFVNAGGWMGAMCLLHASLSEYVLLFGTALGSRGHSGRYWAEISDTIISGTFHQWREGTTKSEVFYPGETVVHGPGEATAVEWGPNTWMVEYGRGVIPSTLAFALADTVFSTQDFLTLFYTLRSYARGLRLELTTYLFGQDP
UniProt P08588, sequence (whole entry, looked up): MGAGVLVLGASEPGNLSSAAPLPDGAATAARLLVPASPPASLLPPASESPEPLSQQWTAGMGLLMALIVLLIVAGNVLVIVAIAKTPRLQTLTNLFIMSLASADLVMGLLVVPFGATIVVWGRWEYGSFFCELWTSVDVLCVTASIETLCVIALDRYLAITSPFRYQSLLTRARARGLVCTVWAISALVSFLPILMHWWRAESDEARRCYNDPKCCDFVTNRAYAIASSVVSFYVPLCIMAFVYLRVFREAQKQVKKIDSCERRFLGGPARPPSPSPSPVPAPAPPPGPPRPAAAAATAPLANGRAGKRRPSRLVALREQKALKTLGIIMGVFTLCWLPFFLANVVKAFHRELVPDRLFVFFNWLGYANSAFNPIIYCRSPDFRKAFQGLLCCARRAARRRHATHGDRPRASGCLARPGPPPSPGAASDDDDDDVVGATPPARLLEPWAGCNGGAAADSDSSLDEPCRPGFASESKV
UniProt P08913, sequence (whole entry, looked up): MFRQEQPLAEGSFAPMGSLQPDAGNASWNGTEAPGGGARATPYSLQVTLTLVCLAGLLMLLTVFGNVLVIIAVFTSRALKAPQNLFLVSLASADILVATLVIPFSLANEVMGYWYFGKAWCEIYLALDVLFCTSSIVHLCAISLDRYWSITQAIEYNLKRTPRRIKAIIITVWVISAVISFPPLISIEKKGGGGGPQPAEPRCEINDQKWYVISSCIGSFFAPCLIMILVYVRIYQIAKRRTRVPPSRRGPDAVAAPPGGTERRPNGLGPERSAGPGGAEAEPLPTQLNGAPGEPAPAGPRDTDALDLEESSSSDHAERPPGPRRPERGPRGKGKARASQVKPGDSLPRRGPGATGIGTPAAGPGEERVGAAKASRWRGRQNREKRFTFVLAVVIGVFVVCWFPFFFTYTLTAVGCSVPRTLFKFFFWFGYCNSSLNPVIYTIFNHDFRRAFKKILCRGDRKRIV
UniProt P28221, sequence (whole entry, looked up): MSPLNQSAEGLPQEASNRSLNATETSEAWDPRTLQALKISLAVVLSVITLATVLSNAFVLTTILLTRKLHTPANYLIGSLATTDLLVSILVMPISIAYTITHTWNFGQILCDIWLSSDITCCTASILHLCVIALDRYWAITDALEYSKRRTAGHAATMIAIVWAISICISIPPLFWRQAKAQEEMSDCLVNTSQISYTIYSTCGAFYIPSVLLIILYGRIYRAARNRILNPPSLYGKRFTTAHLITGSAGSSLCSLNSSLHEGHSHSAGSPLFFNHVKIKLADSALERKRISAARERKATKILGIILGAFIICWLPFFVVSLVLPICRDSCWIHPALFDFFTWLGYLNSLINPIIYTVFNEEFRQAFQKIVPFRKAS
UniProt P08912, sequence (whole entry, looked up): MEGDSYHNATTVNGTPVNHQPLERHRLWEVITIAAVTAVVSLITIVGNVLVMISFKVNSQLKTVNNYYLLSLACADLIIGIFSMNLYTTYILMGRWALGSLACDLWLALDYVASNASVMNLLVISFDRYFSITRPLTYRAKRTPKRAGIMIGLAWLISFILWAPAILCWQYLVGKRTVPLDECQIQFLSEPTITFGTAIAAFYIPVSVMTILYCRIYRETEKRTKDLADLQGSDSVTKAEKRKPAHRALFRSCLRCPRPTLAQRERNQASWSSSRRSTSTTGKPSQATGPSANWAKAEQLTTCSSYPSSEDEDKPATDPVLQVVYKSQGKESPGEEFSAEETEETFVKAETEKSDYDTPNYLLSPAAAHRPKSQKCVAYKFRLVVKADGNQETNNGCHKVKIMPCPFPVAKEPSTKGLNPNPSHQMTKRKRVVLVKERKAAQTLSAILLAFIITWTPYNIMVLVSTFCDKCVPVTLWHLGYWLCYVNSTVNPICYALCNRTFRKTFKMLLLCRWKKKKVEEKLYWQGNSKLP

Set 1
SMILES: CC(C)n1cnc(-c2ccc(F)cc2)c1-c1ncc(C(=O)Nc2ccc(N3CCN(C)CC3)cc2)[nH]1
Technique: phase 2a trial
Species: idiopathic pulmonary fibrosis patients
Measurement: patients with coronary arteriosclerosis
dose = dose not given; notes = adverse event grade 2, all dose arms pooled; result = 0%
dose = 30 mg once daily; notes = adverse event grade 4; result = 0%
dose = 30 mg once daily; notes = adverse event grade 1; result = 0%
dose = dose not given; notes = adverse event grade 4, all dose arms pooled; result = 0%
dose = 30 mg once daily; notes = adverse event grade 5; result = 0%
dose = 60 mg once daily; notes = adverse event grade 1; result = 0%
dose = 60 mg once daily; notes = adverse event grade 5; result = 0%

Set 2
Species: mouse
Medium: microsomes or S9
Concentration: 2 µM
Time: 0.5 h
Measurement: remaining compound
SMILES = Oc1cc(O)c2c(c1)O[C@H](c1ccc(O)c(O)c1)[C@H](O)[C@H]2c1c(O)cc(O)c2c1O[C@H](c1ccc(O)c(O)c1)[C@H](O)C2; result = 88.3%
SMILES = Cc1cc(Cl)ccc1NS(=O)(=O)c1cc(-c2ccc(=O)n(-c3c(C)noc3C)n2)ccc1C; result = 5.48%
SMILES = Cc1ccc(N(C(C)C(=O)N2CCN(C)CC2)S(C)(=O)=O)cc1C (centres unmarked); result = 41.5%
SMILES = COc1ccccc1NC(=O)NC1Cc2ccccc2C1; result = 4.6%
SMILES = Brc1cnn(CC2CCN(Cc3cncs3)CC2)c1; result = 41%
SMILES = CCS(=O)(=O)CCNC(=O)NC(C)c1ccc(C)s1 (centres unmarked); result = 48.5%

Set 3
SMILES: N#CN1CC[C@@H](C(=O)Nc2nc3c(s2)CN(C(=O)CN=[N+]=[N-])CC3)C1
Concentration: 10 µM
Measurement: inhibition
target = Muscarinic acetylcholine receptor M5 (CHRM5, Homo sapiens, UniProt P08912); effect on = binding; technique = radioligand binding; result = 2.94%
target = Sigma non-opioid intracellular receptor 1 (SIGMAR1, Homo sapiens, UniProt Q99720); effect on = binding; technique = radioligand binding; result = 6.56%
target = 5-hydroxytryptamine receptor 1D (HTR1D, Homo sapiens, UniProt P28221); effect on = cell-free assay; result = 20.9%
target = Beta-1 adrenergic receptor (ADRB1, Homo sapiens, UniProt P08588); effect on = binding; technique = radioligand binding; result = 3.17%
target = Alpha-2A adrenergic receptor (ADRA2A, Homo sapiens, UniProt P08913); effect on = binding; technique = radioligand binding; result = 50.7%

Set 4
Target: Homeodomain-interacting protein kinase 2 (HIPK2, Homo sapiens, UniProt Q9H2X6)
UniProt Q9H2X6, sequence (whole entry, looked up): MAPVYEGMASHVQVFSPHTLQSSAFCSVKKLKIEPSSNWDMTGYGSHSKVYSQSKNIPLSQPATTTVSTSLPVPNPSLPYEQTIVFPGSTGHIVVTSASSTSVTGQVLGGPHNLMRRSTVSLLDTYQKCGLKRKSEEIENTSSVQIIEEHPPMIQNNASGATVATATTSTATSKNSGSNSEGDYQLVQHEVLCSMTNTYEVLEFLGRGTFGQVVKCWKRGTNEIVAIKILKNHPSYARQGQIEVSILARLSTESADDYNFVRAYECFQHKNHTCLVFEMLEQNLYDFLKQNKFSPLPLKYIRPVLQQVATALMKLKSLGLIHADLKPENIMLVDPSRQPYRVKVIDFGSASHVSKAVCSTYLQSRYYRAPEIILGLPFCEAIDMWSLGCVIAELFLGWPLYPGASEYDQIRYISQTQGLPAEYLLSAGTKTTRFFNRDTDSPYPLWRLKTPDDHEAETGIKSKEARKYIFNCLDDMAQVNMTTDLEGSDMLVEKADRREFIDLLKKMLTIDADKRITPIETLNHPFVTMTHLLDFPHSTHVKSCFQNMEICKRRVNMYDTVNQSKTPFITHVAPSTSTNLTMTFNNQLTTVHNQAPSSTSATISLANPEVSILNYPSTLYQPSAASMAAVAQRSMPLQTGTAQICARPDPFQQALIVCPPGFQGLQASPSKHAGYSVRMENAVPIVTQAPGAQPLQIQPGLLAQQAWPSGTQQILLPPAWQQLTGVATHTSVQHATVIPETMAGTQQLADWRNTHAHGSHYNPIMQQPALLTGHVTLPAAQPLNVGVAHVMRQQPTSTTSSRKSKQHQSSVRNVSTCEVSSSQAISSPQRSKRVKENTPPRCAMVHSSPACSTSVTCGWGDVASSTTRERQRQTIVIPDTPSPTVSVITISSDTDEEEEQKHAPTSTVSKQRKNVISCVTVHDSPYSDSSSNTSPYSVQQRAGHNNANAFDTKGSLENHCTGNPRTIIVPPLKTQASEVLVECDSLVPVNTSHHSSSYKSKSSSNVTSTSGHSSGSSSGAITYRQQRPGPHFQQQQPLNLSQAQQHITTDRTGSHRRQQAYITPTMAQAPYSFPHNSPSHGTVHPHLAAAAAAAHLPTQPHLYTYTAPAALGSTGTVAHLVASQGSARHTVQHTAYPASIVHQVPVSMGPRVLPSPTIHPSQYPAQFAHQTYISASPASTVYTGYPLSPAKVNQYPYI
Effect on: enzyme activity
Action: inhibitor
Concentration: 0.5 µM
Reference: control
Measurement: remaining activity
SMILES = OCC(O)CCON=C1C(c2c(O)[nH]c3ccccc23)=Nc2ccccc21 (centres unmarked); result = 97.6%
SMILES = COc1ccc(C(=O)Nc2sc3c(c2C(N)=O)CCCC3)cc1OC; result = 107%
SMILES = CC(C)[C@H](CO)Nc1nc(Nc2cc(N)cc(Cl)c2)c2ncn(C(C)C)c2n1; result = 94.3%
SMILES = O=C1NC(=O)C(c2cn(CCCn3ccnc3)c3ccccc23)=C1Nc1ccccc1; result = 87.6%
SMILES = N#CC(C#N)=C(N)/C(C#N)=C/c1ccc(O)cc1; result = 102%
SMILES = CN(C)c1ccc(C=C2C(=O)Nc3ccccc32)cc1; result = 106%
SMILES = O=C(O)c1ccc2c3c1cccc3c(=O)n1c3ccccc3nc21; result = 101%
SMILES = CO[C@H]1C[C@@H]2CC[C@@H](C)[C@@](O)(O2)C(=O)C(=O)N2CCCC[C@H]2C(=O)O[C@H]([C@H](C)C[C@@H]2CC[C@@H](O)[C@H](OC)C2)CC(=O)[C@H](C)/C=C(\C)[C@@H](O)[C@@H](OC)C(=O)[C@H](C)C[C@H](C)/C=C/C=C/C=C/1C; result = 88%
SMILES = O=C(Nc1cccc(Nc2cc(Nc3cccc(C(F)(F)F)c3)ncn2)c1)C1CC1; result = 107%
SMILES = COc1ccc(CNC(=O)Nc2ncc([N+](=O)[O-])s2)cc1; result = 103%
SMILES = Cc1nc(-c2ccccc2)c(-c2ccncc2)o1; result = 95.5%
SMILES = Nc1ncnc2n[nH]c(Nc3ccc(F)cc3)c12; result = 106%
SMILES = Cn1sc(=O)n(Cc2ccccc2)c1=O; result = 99.6%
SMILES = O=c1c2ccccc2[nH]c(=S)n1CCN1CCC(=C(c2ccc(F)cc2)c2ccc(F)cc2)CC1; result = 105%
